Measurements of several laboratories.
A part holds a random share of what one study measured. Substitutions count along the parent as printed.

Study 1 — method: DHFR PCA, deep sequencing; sample: yeast; together with: (+)-ABA 0.032 µM; baseline: wild-type fitted maximum; reading: higher = stronger binding
Target: ABI1, truncated, D143A, DHFR fusion (Arabidopsis thaliana)
Notes: methotrexate growth selection, single substitutions
Starting sequence: PYL1, truncated, DHFR fusion (Arabidopsis thaliana); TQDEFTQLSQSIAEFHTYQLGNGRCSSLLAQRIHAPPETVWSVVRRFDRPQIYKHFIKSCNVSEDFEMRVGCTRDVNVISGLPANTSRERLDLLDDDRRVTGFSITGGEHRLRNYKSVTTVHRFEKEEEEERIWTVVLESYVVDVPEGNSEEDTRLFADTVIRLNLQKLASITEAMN; partner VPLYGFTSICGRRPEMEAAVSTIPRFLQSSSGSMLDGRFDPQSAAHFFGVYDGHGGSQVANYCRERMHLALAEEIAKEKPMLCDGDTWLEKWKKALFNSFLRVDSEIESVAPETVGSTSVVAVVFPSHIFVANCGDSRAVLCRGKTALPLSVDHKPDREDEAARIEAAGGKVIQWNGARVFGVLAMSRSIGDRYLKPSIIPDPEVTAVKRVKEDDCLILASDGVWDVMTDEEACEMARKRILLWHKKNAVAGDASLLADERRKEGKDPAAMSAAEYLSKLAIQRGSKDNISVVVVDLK
| Change | relative binding score [%] |
| --- | --- |
| G102D | -1.44 |
| V118N | -6.74 |
| L169H | 2.79 |
| C72F | 1.37 |
| L112V | -3.87 |
| R24T | 20.7 |
| V40K | -7.22 |
| L164E | 2.2 |
| V142Q | 6.46 |
| G108H | -9.11 |
| P83M | 9.33 |
| L91Y | -5.97 |
| T86K | 9.88 |
| T120A | -1.73 |
| A35G | -0.962 |
| T39F | -3.39 |
| R163Y | -14 |
| A175L | 2.55 |
| D3W | 15.4 |
| A35L | -1.2 |
| V161K | 0.174 |
| T120E | 0.241 |
| H55K | 6.86 |
| R99D | 0.637 |
| E130H | 23.7 |

Study 2 — method: protein binding microarray; molecule type: double-stranded DNA, one strand shown; sample: in vitro; concentration: not given; baseline: not given; reading: higher = stronger binding
Target: Histone acetyltransferase KAT6A, winged helix 1, GST fusion (KAT6A, Homo sapiens, UniProt Q92794, residues 1-85)
Notes: 8-mer, flanks averaged, mean of 2 arrays, mostly near background
Target sequence (chain): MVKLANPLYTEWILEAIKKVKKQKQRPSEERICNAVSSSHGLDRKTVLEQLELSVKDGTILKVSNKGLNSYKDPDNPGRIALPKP
| Sequence | E-score |
| --- | --- |
| ATTCCCCG | 0.182 |
| GGCTTGGA | -0.133 |
| AGCAGATC | -0.288 |
| AGGGGGAT | -0.134 |
| ACCGCTAT | 0.17 |
| CATCCGTA | 0.192 |
| GACATCGA | -0.00652 |
| CGGAACTA | 0.123 |
| AGCAGATG | -0.328 |
| AGCATCAC | -0.198 |
| TCCTAGGA | -0.0596 |
| CGGTCTTC | 0.0738 |
| GGTGGCCA | -0.215 |
| GTCTACAA | -0.101 |
| GCCAAAAC | -0.041 |
| CAGGGAGG | -0.143 |
| CGCATGAC | 0.147 |

Study 3 — target: CCNF, cyclin fold, Cln2 fusion (human); method: yeast growth competition, sequencing; sample: yeast; notes: strong parent motif; baseline: not given; reading: higher = stronger binding
Starting sequence: SCAPER docking peptide (human); SNARRSLNFGGST
| Change | normalised enrichment score |
| --- | --- |
| SNARRKLNFGGST [S6K] | 9.14 |
| VNARRSLNFGGST [S1V] | 8.59 |
| MNARRSLNFGGST [S1M] | 7.74 |
| SMARRSLNFGGST [N2M] | 5.19 |
| KNARRSLNFGGST [S1K] | 7.27 |
| SNARRSLNFGHST [G11H] | 6.81 |
| SNARRSVNFGGST [L7V] | 0.818 |
| SNARRSLNFGGVT [S12V] | 7.26 |
| SNARVSLNFGGST [R5V] | 1.23 |
| SNARRSLNFGGSQ [T13Q] | 6.77 |
| SNARRSLNFAGST [G10A] | 7.12 |
| SNARRSLQFGGST [N8Q] | 6.97 |
| SNARRSFNFGGST [L7F] | 0.635 |
| SNARRSINFGGST [L7I] | 3.65 |
| SNARRVLNFGGST [S6V] | 8.2 |
| SNARRSLHFGGST [N8H] | 6.97 |
| SNARRTLNFGGST [S6T] | 6.64 |
| SNARRSLNFEGST [G10E] | 7.16 |

Study 4 — method: RNA Bind-n-Seq; molecule type: RNA; sample: in vitro; concentration: 1 µM; notes: whole 134-nt RNA, ends assumed; together with: 150 mM KCl; baseline: input library; reading: higher = stronger binding
Target: Ras GTPase-activating protein-binding protein 1, RRM domain (G3BP1, Homo sapiens, UniProt Q13283)
UniProt Q13283, sequence (whole entry, looked up): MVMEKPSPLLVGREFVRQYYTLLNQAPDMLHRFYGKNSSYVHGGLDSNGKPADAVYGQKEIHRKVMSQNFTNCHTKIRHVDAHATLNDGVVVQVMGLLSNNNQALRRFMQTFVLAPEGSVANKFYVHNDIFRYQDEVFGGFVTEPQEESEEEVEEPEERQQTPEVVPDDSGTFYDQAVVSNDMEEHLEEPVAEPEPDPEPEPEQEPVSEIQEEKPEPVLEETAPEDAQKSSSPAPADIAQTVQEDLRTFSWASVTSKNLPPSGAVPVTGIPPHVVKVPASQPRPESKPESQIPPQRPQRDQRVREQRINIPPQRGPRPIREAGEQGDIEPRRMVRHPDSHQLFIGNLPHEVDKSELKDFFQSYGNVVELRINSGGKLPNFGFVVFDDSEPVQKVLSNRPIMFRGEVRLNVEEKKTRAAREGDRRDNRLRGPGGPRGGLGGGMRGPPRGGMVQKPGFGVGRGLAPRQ
| Sequence | log2 enrichment |
| --- | --- |
| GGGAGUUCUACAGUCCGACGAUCGUCCUGUGCUACACAUCGUAUGUACCGAAUCAAACCCCCAAAUUUAAACCCCCCCAAAAAAGUAUUAUGUUACGCCGUUCGGAUCUGCACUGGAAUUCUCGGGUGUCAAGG | -0.182 |
| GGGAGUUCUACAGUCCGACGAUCCUGUGCUACACAUCGUAUGUACCGAAUCGGGGCCCCCCCGGCCCCCCCGGGCCCCCCCGGGAAAGUAUUAUGUUACGCCGUUCGGAUCUGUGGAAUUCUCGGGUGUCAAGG | -0.661 |
| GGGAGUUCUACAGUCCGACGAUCAAGUCCUGUGCUACACAUCGUAUGUACCGAAUCGGGGUUUUGGUUUUGGUUUUGGGGAAAGUAUUAUGUUACGCCGUUCGGAUCUGCACUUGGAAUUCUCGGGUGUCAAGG | -0.345 |
| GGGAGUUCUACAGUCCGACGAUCUAACUUUAGAUGAGGAUCUGAUGGAUAUGGCAGUGGACGUGGAUUUGGGGAUGGCUAUAAUGGGUAUGGAGGAGGACCUGGAGGUGGCAAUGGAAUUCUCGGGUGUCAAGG | -0.928 |
| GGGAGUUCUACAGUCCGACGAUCGUCCUGUGCUACACAUCGUAUGUACCGAAUCGGGCCCCCGGGCCCCCGGGGCCCCCGGGAAAGUAUUAUGUUACGCCGUUCGGAUCUGCAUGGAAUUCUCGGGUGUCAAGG | -0.715 |
| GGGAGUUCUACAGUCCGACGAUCGCAGGAAGUAAAAACGAAUGGAAAUGCUUCGGAUAGUGGCAGGGGUGGGGGUUGCUAAGGAAAGGGUGGGAUGGGAGUGGGUAAAGAGUUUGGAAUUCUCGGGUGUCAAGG | 1.1 |
| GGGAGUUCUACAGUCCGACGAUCCAAGUCCUGUGCUACACAUCGUAUGUACCGAAUCGGUUUUUGGUUUUUGGUUUGGAAAGUAUUAUGUUACGCCGUUCGGAUCUGCACUUCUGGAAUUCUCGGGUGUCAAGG | -0.24 |
| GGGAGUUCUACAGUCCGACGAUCUGUGCUACACAUCGUAUGUACCGAAUCGGGGCCCCCCCGGGGCCCCCCCGGCCCCCCCGGGGAAAGUAUUAUGUUACGCCGUUCGGAUCUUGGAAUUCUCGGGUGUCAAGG | -0.639 |
| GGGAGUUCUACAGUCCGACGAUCCCUGUGCUACACAUCGUAUGUACCGAAUCGGAAAAAAAGGAAAAAAAGGAAAAAAAGGGGAAAGUAUUAUGUUACGCCGUUCGGAUCUGCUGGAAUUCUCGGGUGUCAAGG | 0.094 |
| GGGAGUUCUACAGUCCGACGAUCGUCCUGUGCUACACAUCGUAUGUACCGAAUCGGUUUUUGGGGUUUUUGGGGUUUUUGGGAAAGUAUUAUGUUACGCCGUUCGGAUCUGCAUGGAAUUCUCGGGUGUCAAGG | -0.0426 |

A few entries again (study 4):
| Sequence | log2 enrichment |
| --- | --- |
| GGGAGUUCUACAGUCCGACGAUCUAACUUUAGAUGAGGAUCUGAUGGAUAUGGCAGUGGACGUGGAUUUGGGGAUGGCUAUAAUGGGUAUGGAGGAGGACCUGGAGGUGGCAAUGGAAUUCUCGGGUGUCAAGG | -0.928 |
| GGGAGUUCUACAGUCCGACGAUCGUCCUGUGCUACACAUCGUAUGUACCGAAUCGGGCCCCCGGGCCCCCGGGGCCCCCGGGAAAGUAUUAUGUUACGCCGUUCGGAUCUGCAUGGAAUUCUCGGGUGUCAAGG | -0.715 |
| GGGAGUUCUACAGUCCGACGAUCCUGUGCUACACAUCGUAUGUACCGAAUCGGGGCCCCCCCGGCCCCCCCGGGCCCCCCCGGGAAAGUAUUAUGUUACGCCGUUCGGAUCUGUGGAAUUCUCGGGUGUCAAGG | -0.661 |
| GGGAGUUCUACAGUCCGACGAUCGUCCUGUGCUACACAUCGUAUGUACCGAAUCGGUUUUUGGGGUUUUUGGGGUUUUUGGGAAAGUAUUAUGUUACGCCGUUCGGAUCUGCAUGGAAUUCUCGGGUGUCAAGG | -0.0426 |
